Experimental data from different studies.
Numbered parts are unrelated; each lists some results of a single study.

Study 1 — technique: protein-binding microarray; form: double-stranded DNA, one strand shown; medium: in vitro; concentration: 250 nM; notes: 60-bp whole probe; added: salmon DNA 0.4 mg/ml; baseline: random background probes; reading: higher = stronger binding; measurement: log fluorescence; shared flanks, not repeated: GCCTAGCAC … GTCTTGATTCGCTTGACGCTGCTG
Target: Interferon regulatory factor 5, full length, phosphomimetic (IRF5, Homo sapiens, UniProt Q13568-2, residues 1-514, K96S/S451D/S453D/S456D/S462D)
GTCGGTTTCGGTCTCGGGACGTGCTAG: 10.1 z-score
TTAGGTCTCCTACTGATTTAGTGCTAG: -0.252 z-score
GACGACCTCAGACTGGAGACGTGCTAG: -0.259 z-score
TTAGACCTGAGTATCGATTAGTGCTAG: 6.11 z-score
TCATTTTGGTTTCTGGTACTGTGCTAG: 4.65 z-score
TTAGGTTTCCGTCTCGGTTAGTGCTAG: 1.83 z-score
GACGGTATAGGTATCGGGACGTGCTAG: 0.524 z-score
GACGGTTTCGAACTGGGGACGTGCTAG: 2.45 z-score
GACGAACTGAGACTGGAGAAGTGCTAG: -0.084 z-score
GACGGTTTCCTTTTCCTAACGTGCTAG: 1.36 z-score
TTAGAAATGAGTCTCGATTAGTGCTAG: 1.1 z-score
GACGATATCAGACTGGAGAGGTGCTAG: 0.355 z-score
TTTGATCTCAGTATCGATTAGTGCTAG: 7.05 z-score
GACGAACTGAGTCTCGAGAAGTGCTAG: -0.257 z-score
TATAGTTATTTTTATTAAAAGTGCTAG: 1.23 z-score
TTAGGACTGGGGTATGGGTTAGTGCTA: -0.537 z-score
GACGATATCAGTATTGAGACGTGCTAG: 1.22 z-score
GACGATTCCAGTTTCGAGAAGTGCTAG: 5.44 z-score
GACGATATCAGTCTCCAGACGTGCTAG: 1.1 z-score
TCAGGACTGCTTTTCCTTTAGTGCTAG: 0.282 z-score
GACGGACTGGACTATCGTGACGTGCTA: -0.0761 z-score
TCATCAATCATTTTCGTACTGTGCTAG: 2.39 z-score
TTTCTCTCATTATGTGGGTTGTGCTAG: 6.54 z-score
TTAGGTTTCCACTTTCGGTTAGTGCTA: 10.6 z-score
TCAGTGGTCTGTTTCTGACTGTGCTAG: 0.556 z-score

Study 2 — technique: RNA Bind-n-Seq; form: RNA; medium: in vitro; concentration: not given; notes: RNA with constant flanks, ends assumed; baseline: input RNA pool; reading: higher = stronger binding; measurement: bound/input enrichment
Target: RING finger protein unkempt homolog, zinc fingers 1-6, GST-SBP tag (UNK, Homo sapiens, UniProt Q9C0B0, residues 30-357)
UniProt Q9C0B0, sequence (30-357, looked up): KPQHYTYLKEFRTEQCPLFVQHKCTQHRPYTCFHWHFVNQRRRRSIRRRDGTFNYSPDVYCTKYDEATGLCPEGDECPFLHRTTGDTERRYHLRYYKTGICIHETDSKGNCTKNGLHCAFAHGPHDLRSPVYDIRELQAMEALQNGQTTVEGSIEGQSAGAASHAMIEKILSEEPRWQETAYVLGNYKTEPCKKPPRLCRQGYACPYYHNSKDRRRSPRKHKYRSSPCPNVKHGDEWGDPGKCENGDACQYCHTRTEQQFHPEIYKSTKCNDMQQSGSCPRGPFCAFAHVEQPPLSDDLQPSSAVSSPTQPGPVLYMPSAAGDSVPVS
Shared flanks, not repeated: GGGAGUUCUACAGUCCGACGAUC … CAACAGAGGAUUGAGCAUCA
GCCAAUAUCAAACGAGAACAGGGAAACAUUGAAGAGGCAGUUCGCUUGUAUCGUAAAGCAUCCGAAGUCUUCCCAGAGUUUGCUGCUGCCCAUUCAAAUUUAGCAAGUGUACUGCAGCAG: 0.323 ratio
CAGCAGCCACAGCCACUGAUGUCACAGCAGUUUGCACAGCCUCCAGGAGCUACCAAUAUGACCGGCUACAUGGGGCAGACUGCUUACCAGUACCCUCCCCCUCCCCCUCCCCCUCCUCCA: 0.321 ratio
GCUGCUUUCCACAGUUUGGUGGGGCUGGCAGCAGUUCUUACCUGCAUGGCCGAGUACAUCGCCGAGUAUCCACAUUUUGCAAUGGAUGCCACGUCAAAUUUCACCAAGAUUGUGGCUUAC: 0.142 ratio
GAGUCGAGCAAACUUGAAACAAUUCGUUAUCUUGCAGCCUCAGUGUUCACUUGCUUGGCGACCGCAUUGGGGUUUUAUAGGUUCUGGAAGGAGAACUGACGAUGAUGCUGCCGCUGCUGC: 0.212 ratio
UCUAGAGCUCCCCCAAGACUGACUGUAGUGUCCCCUAACCGAGCUACUUCAACGGAAACCCGCUCAUCUGUAGAGACUGAUUUGCAACCCUUCCGGGAAGCCAUAGCUCUGCAUGGUCUU: 0.905 ratio
ACGAUCGGGGCCUAUAUCAACACAACGCACUCACGCCUCACACACAUCAGUCCUCGGCACUACCGCGAGUUUAUCGAGUUCCUCAGCAAGGCCCGAGAGACCUUCCUAAUGGCACACGAU: 0.161 ratio
CAGAGCCCUCCAUAUAUGGGUGCCACAUCUCCACCCAAAGACAAGAAACGCCCAACACCUUCCGAGAUUGGUUACUCUUCUUCUCACCUUCGGGCAGACCCCACAGUCCAGCUGGCUCCU: 0.312 ratio
CGCUGCCGCGUGGGUCAGUGGGUACGCAUGGAGAACGUGACAGUGCUGGGUGAGGACGUCACCGUUAAUGAUGAGCUCUACCUCAACGGAGCCAGCGUGCUGCCCCACAAGUCUAUUGGC: 0.209 ratio
CAAGAUCACCUGUCUCCUGAAGCAGAAGAAAUCACUAUGAUUAGUAUUCAGCUUGCUGCCCGGUUCCUUUUUACUACAGGAUUUCACACAAAGAAAAUAGUCCGAGGAUCUGCCAGUGAU: 0.265 ratio
AAUAAAGCGGUUGUGCUUCGGGGCCAUGAAUCUGAAGUUUUCAUCUGUGCCUGGAACCCUGUCCGUGAUCUCCUGGCAUCAGGGUCUGGAGACUCCACGGCAAGAAUCUGGAACCUCAGU: 0.123 ratio
CAUGUAACUGUGAAGAAGCUGUUUGUUGGCGGAAUUAAAGAAGAUACUGAGGAACAUCACCUCCGAGAUUACUUUGAGGAAUAUGGAAAAAUUGAUACCAUUGAGAUAAUUACUGAUAGG: 0.408 ratio

Study 3 — technique: protein binding microarray; form: double-stranded DNA, one strand shown; medium: in vitro; concentration: not given; baseline: not given; reading: higher = stronger binding; measurement: E-score
Target: Histone acetyltransferase KAT6A, winged helix 1, GST fusion (KAT6A, Homo sapiens, UniProt Q92794, residues 1-85)
Notes: 8-mer, flanks averaged, mean of 2 arrays, mostly near background
Construct (chain): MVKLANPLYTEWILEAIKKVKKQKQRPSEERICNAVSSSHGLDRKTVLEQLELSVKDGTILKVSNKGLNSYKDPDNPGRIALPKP
AACCTCGC: 0.0873
GACAGGCA: -0.161
GTGAAGCA: -0.0893
TGATTACA: -0.092
TGTAGAAA: -0.121
GTAAATTA: 0.0372
GTTGATGA: -0.15
GAGGGGGA: -0.159
ATAAACCA: -0.0391
ACGACCGC: 0.311
ACGAAGGG: -0.207
GCCCTTTA: 0.0515
GAACCTTC: -0.103
ACCTTCGT: -0.11
CTATAACA: -0.0814
CGCCTCTA: 0.151
ATGGGGTA: -0.126
CCTCTTAG: -0.0471
AGAATATG: -0.249
CGCCACGC: 0.356
CAAGGCAA: -0.276
AACGGAAA: 0.159
GATTTCCA: -0.113
ACTGGGCT: -0.31
ACACTATA: -0.0402

Study 4 — technique: protein-binding microarray; form: double-stranded DNA, one strand shown; medium: in vitro; concentration: not given; reading: higher = stronger binding; measurement: E-score
Target: Myc proto-oncogene protein, bHLH-zipper, MAX partner unstated (MYC, Homo sapiens, UniProt P01106, residues 368-449)
UniProt P01106, sequence (368-449, looked up): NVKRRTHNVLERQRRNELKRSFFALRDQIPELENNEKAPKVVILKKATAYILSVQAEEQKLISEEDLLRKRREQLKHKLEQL
Notes: k-mer, scored over probes, only values ≥0.25
ACAGCGTG: 0.405
CGTGCAAC: 0.36
CCACGCTA: 0.388
CACACCGC: 0.279
ACGTGCGA: 0.413
ACATGCAA: 0.273
CATGCCTC: 0.343
CGTGCGCA: 0.404
AGTGCGTG: 0.326
CGTGGACA: 0.384
ACCATGCA: 0.399
ACACCTGC: 0.281
CACGCCGC: 0.418
ACGCGTTA: 0.318
AGCACACA: 0.295
CACCGCAC: 0.277
ACCTCCCC: 0.299
GCACATGC: 0.465
GAGGCGCA: 0.298
CATGTAAA: 0.256
AGCGTGTG: 0.351
CCCCACGA: 0.264

Study 5 — technique: RNA Bind-n-Seq; form: RNA; medium: in vitro; concentration: 365 nM; baseline: no-protein control; reading: higher = stronger binding; measurement: RBNS enrichment (R)
Target: RNA binding protein fox-1 homolog 2, RRM domain, GST-SBP tag (RBFOX2, Homo sapiens, UniProt O43251-10, residues 100-194)
Notes: natural RNA segment, single round, ends assumed
Shared flanks, not repeated: GGGAGUUCUACAGUCCGACGAUC … UGGAAUUCUCGGGUGCCAA
Residues (chain): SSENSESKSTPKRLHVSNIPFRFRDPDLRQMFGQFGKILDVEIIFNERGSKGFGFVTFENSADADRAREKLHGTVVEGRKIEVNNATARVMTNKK
AAAGUUAUUCAAGUGAAAGAAAGAGAAGGGAAUUGCUUAGUAGGAGUUCUGCAGUAUAGAACAAUUACUUGUAUGAAAUUAUACCUUUGAAUUUUAGAAUGUCAUGUGUU: 1.03
UAGAAGCACAAGACAGUGGAGCCAGCGGAGCCGGGACUAGAGGAGUUGGGCAGUCUCAGUUGAGAAGCUUUAUCGCCUCAAGCCAAGUGGGAGCUCUCUCCCUCAUGCCU: 0.26
AGCAGACGUUAUUUUCCGUGAUUCUUAGGACUACCUGUCUGUCACGAAUCUGCCCACGGUAGUCAGGUCCCCUGAGCUCUGGACUGGAAGUGGAACUGUGUUCCUGCCAG: 0.294
AGGCCACCUCAGCCUGGACUUUGUUGUCCAUAUUGCUAUCAGCAUUUGGGGCAAAGCCAUUCAACAAGUCUGUAGGAAGUUCCAAACUUUCCCACAUUUUCCUGUUUUCU: 0.273
AGAAAGCUAACAGUCAGUUUUUGCAACCUGUCUUCUGGAAGCAAAGUGAAAAGAAAUGACCAGGGCUAUGGCAAAAUCUGGUGAAUGUCGUGAGCUCUCCUACAUCUAUU: 0.382
ACCUCCUGCCAAAGAGAGCUUUUGCUGAGCCGGGACACUUGCCUCUCCACACAGUGGCCCCAGCCGUGACCACCCUGUACCAGUCCCUGCUGUGUCCUGUCUACCUGUGU: 0.253
UGGGCAAGUGGUUCUCAGCCAGGUUUCCGAUUGUCGAUUCAAGGAAGCAAAAGUAAUUUUUCUUGACAUUUGAGGACCUUCCUGAGGCUUCUAAAGUGUUCAUCCUGAUC: 0.299
UCCAUGAACACAUUGCUUCUCGGCCUUUUGGCUAAGAUCAAGUGUAGAAAUCCAUGAACACUAAAGGACUUCAUUGAUUUUUUCAGAGAGUAGAAAACAACUUAGUUUUU: 0.411
UGUUCUAAGUUUUUAAGAAGUUUUAUCUUGUGUAUUUGCAUCAAACAUUUCUUUAUGUGCUAAAUGUUUGCUCUUUAAAAAUGUCUCAGAGUUAGUUACCAGCUUCCUUG: 0.744
AGGUUGCACCCUUAAGAGUAUUCAGAGAGCAUCAAAAGGAGCCCACACCUUCAGCAGUGAAGGAUUCUAACACAGGGAAUCUGCAGUUUGUAGCAGAAUGGUAUUUUCCU: 0.465
AGAUAUUGUGUUAGAAAAAUUUGAAACUAAAAGCUUCCCAAACAAAAUGGGAAACCUUACAGGACAUAAAACAUUAGGCUCGGGUUAGGCACUAAGAUAAAGUCUAGUCC: 0.574
ACACCAGCCCCUUGGCCAGCCUGCCGCAGGCAUCUCAGGGCCAUGCAGAUCCCAGGCUGUGGAUUACGUCACUGCAGGAACUGCUUCUGAAAGGCUUUGGCCUUCCUCAG: 0.233

Excerpt of the above (study 3):
GACAGGCA: -0.161
CCTCTTAG: -0.0471
AGAATATG: -0.249
ACGACCGC: 0.311
ACCTTCGT: -0.11
GTGAAGCA: -0.0893
ATAAACCA: -0.0391
CGCCTCTA: 0.151
AACGGAAA: 0.159
AACCTCGC: 0.0873
ACTGGGCT: -0.31
GTAAATTA: 0.0372
ACGAAGGG: -0.207
